Results from different studies.
Numbered parts are unrelated; each lists some results of a single study.

Set 1
Target: Histone acetyltransferase KAT6A, winged helix 1, GST fusion (KAT6A, Homo sapiens, UniProt Q92794, residues 1-85)
Technique: protein binding microarray
Form: double-stranded DNA, one strand shown
Medium: in vitro
Concentration: not given
Setting: 8-mer, flanks averaged, mean of 2 arrays, mostly near background
Relative to: not given
Direction: higher = stronger binding
Target sequence (chain): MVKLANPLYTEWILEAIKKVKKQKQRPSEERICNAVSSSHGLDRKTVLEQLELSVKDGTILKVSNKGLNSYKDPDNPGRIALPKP
Strand	E-score
ACTTACCT	-0.215
AACGTCAG	-0.245
GACCGGTA	0.194
AATCGTTA	-0.0862
GCCTTCGA	-0.0491
ATGCGGAG	0.143
TCCGGTAA	0.123
CCGACTTC	0.107
TTAGTGAA	-0.221
AAAATGGG	-0.144
CGAATTAG	-0.139
CCGTGCTA	0.193
AAATTGCG	0.193
ACTAGCGC	0.343
AAAGCTGA	-0.0613
GGAGGTGA	-0.0321
ATCCTGCC	-0.0163

Set 2
Target: Phosphate system positive regulatory protein PHO4, full length, GST-tagged (PHO4, Saccharomyces cerevisiae, UniProt P07270, residues 1-312)
Technique: competition protein-binding microarray
Form: double-stranded DNA, one strand shown
Medium: in vitro
Concentration: 2 µM
Setting: whole 60-bp probe, lowest competitor level
Added: Cbf1 competitor, 0.05 µM
Direction: higher = stronger binding
Shared flanks, not repeated: … GTCTTGATTCGCTTGACGCTGCTG
Construct (chain): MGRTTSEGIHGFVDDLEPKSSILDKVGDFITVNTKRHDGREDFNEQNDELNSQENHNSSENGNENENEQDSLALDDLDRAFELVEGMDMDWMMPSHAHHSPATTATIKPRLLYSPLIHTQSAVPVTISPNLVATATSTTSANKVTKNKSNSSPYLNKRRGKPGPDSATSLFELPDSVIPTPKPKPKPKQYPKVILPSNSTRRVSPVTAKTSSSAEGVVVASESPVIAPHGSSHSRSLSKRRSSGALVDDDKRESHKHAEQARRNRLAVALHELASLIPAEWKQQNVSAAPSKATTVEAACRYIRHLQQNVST
Strand	fluorescence intensity
TGCGCAACAACTTGATGCGTGGGTGTATGTCTAGAA	8630 a.u.
AAATTACTAAGTTTTCACGTGTAATACCCCGTATGA	12200 a.u.
GGTTTTGTAGGACTAGGTGTGATGAGTGGTGGCTTT	5480 a.u.
GCCTCTGTACAATGCCACGTTGATACGCCCAGCAGC	11100 a.u.
CAGAATCGCATACTCCACGTGAGAACAAGAAAAAAT	14500 a.u.
AAGGTAATGGTATGGCTCGTGACGGATTTACCCAAC	6830 a.u.
AATCCTGGGGTACCGGTCGTGCCGACGCTCGTATTC	6410 a.u.
CTAACGAAGGTTTGTCACGTGTTTTACAAGCCAAGT	14100 a.u.
CGTCCTAGCGATTAACACGTGTTTTCCATGAGGAAG	18300 a.u.
CAACGGCGCCTCGGCCACGTTGAGTGAACCTTTGGC	12200 a.u.
CTTCTGTAAATTTTTCACGTGTTCTGACGCGCCCCG	13300 a.u.
ACAAGCGGTTTTTTTTTCGTGGGTAAACATTATTTG	4000 a.u.
CCAGTCTCTGTCTTGCGCGTGCAAATAAGTGCCGGC	9040 a.u.
TATGGGTTGTGAAGTCACGTGGTTTGGGTTCAAATC	13800 a.u.
TCGTCTGGGTTGGGACCGATGATAATAACGTAGTTA	2990 a.u.
TGTCCCTCTATTAACACCGTGATGGTCAAATCAAAC	6410 a.u.
TCATTAAAAACGCTTCACGTGATGGTTACTTGCATA	14200 a.u.
TGCGCAACAACTTGTATGGTGGGTGTATGTCTAGAA	4880 a.u.
CCTTCCACATTGCGTACCGTGACGGTGGCGGAATTT	5430 a.u.

Set 3
Target: Myc proto-oncogene protein, bHLH-zipper, MAX partner unstated (MYC, Homo sapiens, UniProt P01106, residues 368-449)
Chain of UniProt P01106 (368-449, looked up): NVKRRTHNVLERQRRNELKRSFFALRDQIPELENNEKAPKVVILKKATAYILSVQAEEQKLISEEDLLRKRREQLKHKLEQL
Technique: protein-binding microarray
Form: double-stranded DNA, one strand shown
Medium: in vitro
Concentration: not given
Setting: k-mer, scored over probes, only values ≥0.25
Direction: higher = stronger binding
Strand	E-score
GTGCGCAC	0.366
CCGCGTGC	0.474
ATACATGC	0.305
ACGTGTTC	0.415
ACACGCTG	0.412
AAGCACGA	0.294
CGTGGTAC	0.389
CATGGGGC	0.388
AGGCGTGC	0.323
CACGTCCC	0.253
CGGCATGC	0.408
AGCATGCG	0.433
CACATGAG	0.389
ACATGGAG	0.329
ACCACCAC	0.303
CACATGTG	0.482
CACACGCC	0.357
GTGGCATA	0.252
CCCACCCC	0.373
ATGCGCCA	0.303
ACACCATG	0.367
CACGACCA	0.288
CACGCCTC	0.373
CACCTCGC	0.27
CGCGCAAC	0.253

Set 4
Target: RNA binding protein fox-1 homolog 2, RRM domain, GST-SBP tag (RBFOX2, Homo sapiens, UniProt O43251-10, residues 100-194)
Technique: RNA Bind-n-Seq
Form: RNA
Medium: in vitro
Concentration: 365 nM
Setting: natural RNA segment, single round, ends assumed
Relative to: no-protein control
Direction: higher = stronger binding
Shared flanks, not repeated: GGGAGUUCUACAGUCCGACGAUC … UGGAAUUCUCGGGUGCCAA
Target sequence (chain): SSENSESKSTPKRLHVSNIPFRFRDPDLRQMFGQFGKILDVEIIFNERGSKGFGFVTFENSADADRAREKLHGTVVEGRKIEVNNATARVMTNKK
Strand	RBNS enrichment (R)
GGUUAUAUCCAGUUAUACAGGCGAGGAGGGGCUGUGGUAAAGACAGAUUAAAAGGAACAAAUGAAGUUCAUUUGGUGUGCCAGAUUGCCCCUGUCUUACAAAUCCCAGAC	0.249
ACUUACAGUACACCUGACUUGGAAGACCCUUUUGAGUUCAAGGCAGAGUGUGCAAUGUUGAAAUGGAGCAGUAGGUGCUGAGGACUUCCACUACCAUUGUAGAUCCCCUU	0.369
GUGGUAAAAAAGCCUCUGAAAGCUGUAACACCCUCAGUAAUAACAAAAGGGAUUUUUAUUUCACAGCUAAAGGGAAAAUAGGUGGAGAAGUUAAAAAAUAAUGUCUGAUC	0.768
AGCAGUUGGUAUUGUUAACUUUUUAUGAUCAUCAAAAGUACAUAAAAGUCCUAUUAAUCCCCUUACUCUGCUUCCCUUAGCUCUGGUAUACACCAAAAAGAAAUCUUUAC	0.522
UCUACCACUACAUGGAAUGACAUAAAAGCAACUUGUAGGCCAGAGGGGUGGGGUGAACCCUUCUGUGGUCUGUACCCCUGGUCUAGUGGGAGGAAUCCCUGAAGACCUGC	0.523
UCUGCAAAUACUGUCUUUCCUGGAUUACACAUAGUGUGGUUUCCUGAGGGAUUCUGACUAAUGUGGUUUUUAAAACUUGGGUGUACUUUUUAGGAAAAUUGCAUCUGGCU	0.883
AAUUUAGUUAUCAAUUCAAUAUAGCUCUGUUGAUUAAAUAGCCGAUAGUAUUGUGGCUCUCCUCUUUGACUAUGAAAAUAUAGAGAAAGUUUUUUCUUUAAGGCUUUUUU	0.309
UGUCUGCAUAUUGCAUAGCCUUGUCCUCCUGUGUGCCUGAGCUCCUCCCUUUUCAAUAAGAUUAUUAGUCGUGCAUGUCUGUGAGCUGCCUUUCAUCACCAUUUUUCCUG	8.83

Mixed results
Substance	target	assay	system	conditions	scale	quantity	result
PhoQ, residues 284 288 289 292 302 303 GTAMQF	PhoP, residues 12 14 15 18 19 NQGLL (Escherichia coli, UniProt P23836)	Sort-seq, measured: YFP reporter	E. coli	PhoQ-PhoP variant library, added: 10 µM Mg2+	relative to: high Mg2+ state, higher = stronger signaling	fold induction	12.4
